Experimental data pooled from the literature.
Each numbered part is a random draw from the data of one study; scales do not carry over between parts.

Series 1
Target: Sal-like protein 4, full length isoform B (SALL4, Homo sapiens, UniProt Q9UJQ4-2, residues 1-616)
Technique: universal PBM
Form: double-stranded DNA, one strand shown
Matrix: in vitro
Tested at: not given
Notes: 8-mer, flanks averaged, mean of replicates
Reading: higher = stronger binding
Quantity: E-score
CTCTGCTC: -0.158
AAGGTATC: -0.0133
CAGGGGGA: -0.223
AGCCGCCT: -0.32
CTCCTAGC: -0.205
CATATGGG: -0.00936

Series 2
Target: Histone acetyltransferase KAT6A, both winged helices, GST fusion (KAT6A, Homo sapiens, UniProt Q92794, residues 1-181)
Technique: protein binding microarray
Form: double-stranded DNA, one strand shown
Matrix: in vitro
Tested at: not given
Notes: 8-mer, flanks averaged, mean of 2 arrays, mostly near background
Relative to: not given
Reading: higher = stronger binding
Quantity: E-score
Residues (chain): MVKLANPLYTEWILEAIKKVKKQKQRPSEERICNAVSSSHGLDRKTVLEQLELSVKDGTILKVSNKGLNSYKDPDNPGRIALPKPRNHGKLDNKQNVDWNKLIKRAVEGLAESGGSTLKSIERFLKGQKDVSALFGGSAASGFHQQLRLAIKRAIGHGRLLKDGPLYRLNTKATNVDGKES
AGTGCTAT: -0.257
AAGCAACG: 0.00068
AGAACCTC: 0.0697
CCACAGGA: -0.162
ATCCGATC: 0.0512
AGGAGGTA: -0.208
GCCTACCC: -0.0883
GAAAAAGA: -0.0817
AGATCAAA: -0.0856

Series 3
Target: Ras GTPase-activating protein-binding protein 1, RRM domain (G3BP1, Homo sapiens, UniProt Q13283)
Sequence of UniProt Q13283 (whole entry, looked up): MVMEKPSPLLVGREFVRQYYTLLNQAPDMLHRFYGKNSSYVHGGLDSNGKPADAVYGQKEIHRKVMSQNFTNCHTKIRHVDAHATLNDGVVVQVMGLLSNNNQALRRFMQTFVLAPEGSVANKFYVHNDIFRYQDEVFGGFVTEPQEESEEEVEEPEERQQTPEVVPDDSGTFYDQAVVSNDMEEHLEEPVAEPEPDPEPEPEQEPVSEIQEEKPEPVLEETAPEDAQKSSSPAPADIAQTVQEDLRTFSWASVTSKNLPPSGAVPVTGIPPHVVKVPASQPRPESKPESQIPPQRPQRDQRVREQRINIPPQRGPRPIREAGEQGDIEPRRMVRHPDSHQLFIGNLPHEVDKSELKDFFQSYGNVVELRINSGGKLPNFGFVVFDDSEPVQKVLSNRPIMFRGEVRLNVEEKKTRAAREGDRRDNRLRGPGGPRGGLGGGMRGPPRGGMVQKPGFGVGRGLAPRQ
Technique: RNA Bind-n-Seq
Form: RNA
Matrix: in vitro
Tested at: 1 µM
Notes: whole 134-nt RNA, ends assumed
Added: 150 mM KCl
Relative to: input library
Reading: higher = stronger binding
Quantity: log2 enrichment
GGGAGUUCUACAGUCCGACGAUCAAUGCCCACAAGGUCCCUCCCCCAUGGCUGAUUGCCAUGCAGCGAUAUGGACCACCCCCAUCGUAUCCCAACCUGAAAAUCCCUGGGCUGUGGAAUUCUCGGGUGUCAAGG: -0.294
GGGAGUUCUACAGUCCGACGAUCUGGGAGGUGGAUUUUGUUUAUUUUUUUAGCUCAUUUUCAGGGGUGGGAAUUUUUUUUUAAUAUGUGUCAUGAAUAAAGUUGUUUUUGAAAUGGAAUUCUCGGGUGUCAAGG: 2.11
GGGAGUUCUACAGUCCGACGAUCACCAUGCAGGUGGACAUCUUUGGGAAGUGGGGCAAGGGGGGGAUAGGGAGGGGGGUAACACUUUGGGAACAGGUGGUCCCAGGUCGUUUCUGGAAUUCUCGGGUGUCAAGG: -0.501
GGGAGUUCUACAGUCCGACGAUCCCUCAAGUCCUGUGCUACACAUCGUAUGUACCGAAUCGGAAGGAAGGGAAGGAAAGUAUUAUGUUACGCCGUUCGGAUCUGCACUUCCAGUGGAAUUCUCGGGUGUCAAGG: -0.142
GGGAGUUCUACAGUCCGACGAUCUAACUUUAGAGGAGGAUCUGAUGGAUAUGGCAGUGGACGUGGAUUUGGGGAUGGCUAUAAUGGGUAGGGAGGAGGACCUGGAGGUGGCAAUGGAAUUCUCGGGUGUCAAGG: -0.243
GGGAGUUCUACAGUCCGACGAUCUGGGAGGUGGAUUUUGUUUAUUUUUUUAGCUCAUUUCCAGGGGUGGGAAUAUUUUUUUAAUAUGUGUCAUGAAUAAAGUUGUUUUUGAAAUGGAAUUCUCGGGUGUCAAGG: 2.11
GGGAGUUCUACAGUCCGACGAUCUUGAUGCCCCAGAUGUGGAUGUUCAUGGCCCAGACUGGCACCUGAAGAUGCCUAAGAUGAAAAUGCCCAAGUUCAGCAUGCCUGGCUUCAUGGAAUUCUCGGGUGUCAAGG: 0.0728
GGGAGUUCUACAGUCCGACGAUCCAAGUCCUGUGCUACACAUCGUAUGUACCGAAUCGGGUUUGGGUUUUUGGGUGGGAAAGUAUUAUGUUACGCCGUUCGGAUCUGCACUUCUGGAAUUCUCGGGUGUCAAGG: 0.605

Mixed results
PhoQ, residues 284 288 289 292 302 303 SLANIV  fold induction (PhoP, residues 12 14 15 18 19 LHHSG (Escherichia coli, UniProt P23836); Sort-seq, refers to: YFP reporter; E. coli; PhoQ-PhoP variant library, added: 10 µM Mg2+; relative to: high Mg2+ state, higher = stronger signaling): 5.75

For quick reference, copied from above (series 3):
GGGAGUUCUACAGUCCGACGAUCAAUGCCCACAAGGUCCCUCCCCCAUGGCUGAUUGCCAUGCAGCGAUAUGGACCACCCCCAUCGUAUCCCAACCUGAAAAUCCCUGGGCUGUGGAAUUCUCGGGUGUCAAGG: -0.294
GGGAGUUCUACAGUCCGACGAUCACCAUGCAGGUGGACAUCUUUGGGAAGUGGGGCAAGGGGGGGAUAGGGAGGGGGGUAACACUUUGGGAACAGGUGGUCCCAGGUCGUUUCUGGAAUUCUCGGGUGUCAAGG: -0.501
